Experimental data from different studies.
Each line is one published result; not all experiments were run side by side.

SMILES | matrix | tested at | together with | intrinsic clearance
CC(C)(C)NCC(SS(=O)(=O)O)c1ccccc1 (stereo not shown) | female Swiss Webster mouse hepatocytes | – | – | 32 µL/min/10⁶ cells
CC(=O)Nc1cc(Nc2cc(NC3CC3)n3ncc(C#N)c3n2)ccc1N1CCOCC1 | male CD-1 mouse hepatocytes | 1 µM | 1-aminobenzotriazole 1 mM | < 32 mL/min/kg
Cc1ccc(NCC(=O)Nc2ccc(F)c(Cl)c2)cc1S(=O)(=O)N1CCOCC1 | mouse liver microsomes | – | – | 50 mL/min/g
CCc1nc(N)nc(N)c1C#CC(C)c1cc(-c2ccnc(OC)c2)ccc1OC (racemic) | mouse liver microsomes | 5 µg/mL | – | 69 µL/min/mg
CCCNC(=O)NC1CC=C(c2cc3c(Nc4cc5ncsc5cc4F)ncnc3s2)CC1 (racemic) | human liver microsomes | 1 µM | – | < 12 mL/min/g protein
NS(=O)(=O)c1ccc(NC(=O)NN[C@@H]2O[C@H](CO)[C@@H](O)[C@H](O)[C@@H]2O)cc1 | mouse liver microsomes | 1 µM | – | 4.43 mL/min/kg
CC1Cc2ccccc2N1C(=O)CN1CCN(Cc2ccccc2)CC1 (stereo not shown) | mouse liver microsomes | 0.5 µM | – | 13.8 mL/min/g
CC(=O)N1CCC=C(c2cc3c(Nc4cc5ncsc5cc4F)ncnc3s2)C1 | human liver microsomes | 1 µM | – | < 12 mL/min/g protein
O=S(=O)(NCc1csc(-c2ccccc2)n1)c1ccc2ccccc2c1 | pooled human liver microsomes | – | – | 17 mL/min/g
O=C(NC1CC=C(c2cc3c(Nc4cc5ncsc5cc4F)ncnc3s2)CC1)NC1CCCC1 (racemic) | human liver microsomes | 1 µM | – | < 12 mL/min/g protein
CCc1nc(N)nc(N)c1C#C[C@H](C)c1cc(-c2ccncc2)ccc1OC | mouse liver microsomes | 5 µg/mL | – | ~10 µL/min/mg
Cc1nn(-c2ccccc2)nc1CNS(=O)(=O)c1cccs1 | pooled human liver microsomes | – | – | 9.1 mL/min/g
CCC(=O)N1CCC=C(c2cc3c(Nc4cc5ncsc5cc4F)ncnc3s2)C1 | human liver microsomes | 1 µM | – | < 12 mL/min/g protein

For quick reference, copied from above:
SMILES | matrix | tested at | together with | intrinsic clearance
CC(C)(C)NCC(SS(=O)(=O)O)c1ccccc1 (stereo not shown) | female Swiss Webster mouse hepatocytes | – | – | 32 µL/min/10⁶ cells
